Experimental data of several laboratories.
Compare with care: the assays were run in different laboratories. Numbers after ± are the reported error.
Organism: Salmonella typhimurium

With `O=[N+]([O-])c1ccc(N2CCC(NCCC(O)c3ccc(F)c4ccccc34)CC2)c(C(F)(F)F)c1` (stereo not drawn) the induction factor was 1.1 (genotoxicity, SOS/umu test; TA1535/pSK1002; 0.001 mg/mL, 4 h, with S9, lower range).
For `CN(CC(C)(C)C)N=O`, “revertant colonies per plate” read 23.7 ± 4 (mutagenicity, Ames plate incorporation; TA1535; 150 µg/plate, without S9, methanol).
The revertant ratio of `Cc1cc(C(=O)NC(C)(C)COc2cccc3c2C(N)=NS(=O)(=O)N3)cc(C)n1` is reported as 0.9 (Ames test, confirmatory; TA98; 100 µg/plate, added: rat liver S9; reference: solvent control).
For `CC(=O)N1CCC(C(=O)N2CCN3C(=O)c4cc(-c5ccccc5)ccc4NC(=O)C3C2)CC1` (stereo not drawn), “revertants per plate” read 25.5 (TA98; 158 µg/plate).
`O=[N+]([O-])c1ccc(N2CCN(CCC(O)c3ccc(F)cc3)CC2)c(C(F)(F)F)c1` (stereo not drawn) gave a survival of 110% (SOS/umu test; TA1535/pSK1002; 0.002 mg/mL, 4 h, without S9, full range).
`CC(C)N(N=O)C(C)C` — result for “revertant colonies per plate”: 26 ± 2 (mutagenicity, Ames plate incorporation; TA1535; 150 µg/plate, without S9, methanol).
For `COc1cccc(-c2n[nH]c(SCc3ccccn3)n2)c1OC`, “revertant colonies per plate” read 25 (Ames test, preincubation; TA98; 0.13 mg/plate, with rat liver S9).
For `Fc1ccc(C2=CCNCC2)cc1`, the survival was 94.2% (SOS/umu test; TA1535/pSK1002; 0.004 mg/mL, 4 h, with S9, full range).
Under “revertant colonies per plate”, `COCCN(CCOC)N=O` is recorded as 150 ± 12 (mutagenicity, Ames plate incorporation; TA100; 5000 µg/plate, 3 d, without S9, methanol).

Repeated from above:
For `CC(=O)N1CCC(C(=O)N2CCN3C(=O)c4cc(-c5ccccc5)ccc4NC(=O)C3C2)CC1` (stereo not drawn), “revertants per plate” read 25.5 (TA98; 158 µg/plate).
